{"data": "Experimental data pooled from the literature", "note": "Every numbered part comes from another study and shows a few of its results, in no order."}
{"data": "Set 1", "target": "Interferon regulatory factor 7, full length, phosphomimetic (IRF7, Homo sapiens, UniProt Q92985, residues 1-503, S471D/S472D/S475D/S476D/S477D/S483D/S484D/S487D)", "technique": "protein-binding microarray", "form": "double-stranded DNA, one strand shown", "sample": "in vitro", "concentration": "2200 nM top", "notes": "60-bp whole probe", "together with": "salmon DNA 0.4 mg/ml", "baseline": "random background probes", "direction": "higher = stronger binding", "shared flanks, not repeated": "GCCTAGCAC … GTCTTGATTCGCTTGACGCTGCTG", "sequence of UniProt Q92985 (whole entry, unmodified, looked up)": "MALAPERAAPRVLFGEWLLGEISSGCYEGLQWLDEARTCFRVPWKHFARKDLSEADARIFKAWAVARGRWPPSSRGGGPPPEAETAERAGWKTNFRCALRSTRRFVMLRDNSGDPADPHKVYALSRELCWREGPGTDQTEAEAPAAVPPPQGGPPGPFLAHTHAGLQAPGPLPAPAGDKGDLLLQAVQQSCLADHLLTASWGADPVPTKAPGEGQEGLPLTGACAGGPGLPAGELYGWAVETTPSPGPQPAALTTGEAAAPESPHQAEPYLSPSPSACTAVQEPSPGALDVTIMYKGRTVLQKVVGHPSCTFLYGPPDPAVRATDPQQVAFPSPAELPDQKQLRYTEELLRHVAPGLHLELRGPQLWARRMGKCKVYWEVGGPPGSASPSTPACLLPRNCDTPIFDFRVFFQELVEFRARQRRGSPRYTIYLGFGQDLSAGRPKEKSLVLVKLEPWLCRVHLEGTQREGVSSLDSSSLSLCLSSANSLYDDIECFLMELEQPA"}
{"Strand": "CACGGACTGGGGTTTCGGGACGTGCTA", "fitted relative affinity [z-score]": 0.0741}
{"Strand": "TTAGGTATCGGGACTGGGTCAGTGCTA", "fitted relative affinity [z-score]": -0.522}
{"Strand": "ATAGGACTGGACTTTCGGTTAGTGCTA", "fitted relative affinity [z-score]": 5.5}
{"Strand": "AGACAGTTGAGTTCTGTTGCAGTGCTA", "fitted relative affinity [z-score]": -0.128}
{"Strand": "GACGCTTTCCTTATCCTGACGTGCTAG", "fitted relative affinity [z-score]": 3.64}
{"Strand": "GAAGGACTGGGGTATCGGGACGTGCTA", "fitted relative affinity [z-score]": -0.835}
{"Strand": "CTCTTTCTTTGCTTCACCCTGTGCTAG", "fitted relative affinity [z-score]": 2.81}
{"data": "Set 2", "target": "Sal-like protein 4, full length isoform A (SALL4, Homo sapiens, UniProt Q9UJQ4, residues 1-1053)", "technique": "universal PBM", "form": "double-stranded DNA, one strand shown", "sample": "in vitro", "concentration": "600 nM", "notes": "8-mer, flanks averaged, mean of replicates", "direction": "higher = stronger binding", "sequence of UniProt Q9UJQ4 (whole entry, looked up)": "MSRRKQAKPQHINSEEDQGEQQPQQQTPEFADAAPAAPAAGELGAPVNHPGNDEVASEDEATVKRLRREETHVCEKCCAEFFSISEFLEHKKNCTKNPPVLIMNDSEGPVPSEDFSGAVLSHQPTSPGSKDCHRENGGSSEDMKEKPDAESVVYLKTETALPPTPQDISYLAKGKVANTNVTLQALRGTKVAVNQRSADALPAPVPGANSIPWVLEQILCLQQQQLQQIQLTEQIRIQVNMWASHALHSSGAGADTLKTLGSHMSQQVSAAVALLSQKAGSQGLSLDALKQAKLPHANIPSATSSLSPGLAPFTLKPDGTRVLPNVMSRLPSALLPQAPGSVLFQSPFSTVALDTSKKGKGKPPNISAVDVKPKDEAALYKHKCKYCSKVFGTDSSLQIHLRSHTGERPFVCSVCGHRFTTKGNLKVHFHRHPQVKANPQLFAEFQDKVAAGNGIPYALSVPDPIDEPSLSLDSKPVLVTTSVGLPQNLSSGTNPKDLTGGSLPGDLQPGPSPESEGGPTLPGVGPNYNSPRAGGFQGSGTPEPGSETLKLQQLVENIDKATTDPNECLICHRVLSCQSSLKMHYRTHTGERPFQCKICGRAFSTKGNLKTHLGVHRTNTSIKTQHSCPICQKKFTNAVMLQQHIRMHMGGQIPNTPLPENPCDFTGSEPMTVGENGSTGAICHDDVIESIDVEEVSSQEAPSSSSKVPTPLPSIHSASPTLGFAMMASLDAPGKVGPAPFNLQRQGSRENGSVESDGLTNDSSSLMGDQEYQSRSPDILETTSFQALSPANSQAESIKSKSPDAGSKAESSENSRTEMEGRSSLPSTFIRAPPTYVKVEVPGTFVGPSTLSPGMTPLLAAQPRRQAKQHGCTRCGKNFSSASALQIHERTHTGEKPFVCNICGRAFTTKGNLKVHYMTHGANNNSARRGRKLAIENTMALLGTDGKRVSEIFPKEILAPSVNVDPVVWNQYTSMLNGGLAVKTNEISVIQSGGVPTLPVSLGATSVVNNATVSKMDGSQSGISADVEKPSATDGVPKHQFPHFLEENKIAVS"}
{"Strand": "ATATTTGC", "E-score": 0.342}
{"Strand": "ATCCAGTG", "E-score": -0.00298}
{"Strand": "GAAGCGAA", "E-score": -0.0279}
{"Strand": "ATCACCCC", "E-score": -0.0508}
{"data": "Set 3", "target": "Histone acetyltransferase KAT6A, both winged helices, GST fusion (KAT6A, Homo sapiens, UniProt Q92794, residues 1-181)", "technique": "protein binding microarray", "form": "double-stranded DNA, one strand shown", "sample": "in vitro", "concentration": "not given", "notes": "8-mer, flanks averaged, mean of 2 arrays, mostly near background", "baseline": "not given", "direction": "higher = stronger binding", "Residues (chain)": "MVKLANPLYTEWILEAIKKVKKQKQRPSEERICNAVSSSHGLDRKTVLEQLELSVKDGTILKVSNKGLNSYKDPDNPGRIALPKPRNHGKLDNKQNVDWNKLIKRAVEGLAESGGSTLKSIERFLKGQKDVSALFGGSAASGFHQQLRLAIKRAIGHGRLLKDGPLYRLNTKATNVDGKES"}
{"Strand": "GAATTCCA", "E-score": -0.0574}
{"Strand": "GTACTTAA", "E-score": -0.123}
{"Strand": "GGGGTACA", "E-score": -0.083}
{"Strand": "CTGTAACC", "E-score": 0.0717}
{"Strand": "TTCTAAAA", "E-score": -0.0404}
{"data": "Single results of other studies"}
{"Molecule": "PhoQ, residues 284 288 289 292 302 303 ASASEQ", "target": "PhoP, residues 12 14 15 18 19 NHFRA (Escherichia coli, UniProt P23836)", "test": "Sort-seq, refers to: YFP reporter", "system": "E. coli", "setting": "PhoQ-PhoP variant library, together with: 10 µM Mg2+", "scale": "baseline: high Mg2+ state, higher = stronger signaling", "measurement": "fold induction", "value": 1.69}
{"note": "Repeated from above (set 2):"}
{"Strand": "ATATTTGC", "E-score": 0.342}
{"Strand": "ATCCAGTG", "E-score": -0.00298}
